Measured values gathered from unrelated publications.
Each line is one published result; not all experiments were run side by side. “And” joins repeats or separate records; there may be more than shown. Values after ≈ are worked out from the molar mass of the structure shown.
Organism: Klebsiella pneumoniae

SMILES | assay | system | conditions | how to read | quantity | value
NC[C@H]1O[C@H](O[C@H]2[C@H](O)[C@@H](O[C@H]3O[C@H](CO)[C@@H](O)[C@H](N)[C@H]3O)[C@H](N)C[C@@H]2N)[C@H](O)[C@@H](O)[C@@H]1O | bacterial growth |  | concentration not given |  | inhibition | 10%
C[C@@H](O)[C@H]1C(=O)N2C(C(=O)O)=C(SCCN=CN)C[C@H]12 |  |  |  |  | MIC90 | 8 µg/mL (≈ 26.7 µM)
Cc1c(CN(C)C(=O)/C=C/c2cnc3c(c2)CC(NC(=O)OC(C)(C)C)C(=O)N3)oc2ccccc12 (stereo not drawn) | broth microdilution | AR-0139 |  |  | MIC | > 32 µg/mL
N=C(N)c1ccc(OCc2cc(Br)cc(COc3ccc(C(=N)N)cc3)c2)cc1 |  | ATCC 13883 | concentration not given, together with: rifampicin |  | MIC in combination | 6.25 µg/mL
Cc1c(CN(C)C(=O)/C=C/c2cnc3c(c2)CCC(=O)N3)oc2ccccc12 | broth microdilution | AR-0066 |  |  | MIC | > 32 µg/mL
C[C@@H](O)[C@H]1C(=O)N2C(C(=O)O)=C(S[C@@H]3CN[C@H](C(=O)N(C)C)C3)[C@H](C)[C@H]12 |  | ATCC 700603, mouse lung infection model, lung | 10 mg/kg, 24 h |  | lung bacterial burden | 6.5 log CFU and 5.73 log CFU and 5.44 log CFU and 5.54 log CFU and 5.63 log CFU and 5.66 log CFU
N=C(N)c1ccc(OCCC(CCOc2ccc(C(=N)N)cc2)c2ccccc2)cc1 (stereo not drawn) | checkerboard | ATCC 13883 | unit not given, together with: rifampicin | lower = stronger synergy | FICI | ≤ 0.047
C[C@H]1COc2c(N3CCN(C)CC3)c(F)cc3c(=O)c(C(=O)O)cn1c23 |  | ATCC 27736 | 20 h |  | MBC | 0.06 µg/mL (≈ 0.166 µM)
N=C(N)c1ccc(OCc2ccccc2COc2ccc(C(=N)N)cc2)cc1 |  | ATCC 13883 | concentration not given, together with: rifampicin |  | MIC in combination | 12.5 µg/mL
CN(C)[C@@H]1C(O)=C(C(N)=O)C(=O)[C@@]2(O)C(O)=C3C(=O)c4c(O)cccc4[C@@](C)(O)[C@H]3C[C@@H]12 | broth microdilution | NCTC 13438 |  | reference: 5% CO2 over ambient air | MIC fold shift | 0.5
N=C(N)c1ccc(OCc2ccc(Br)cc2COc2ccc(C(=N)N)cc2)cc1 |  | ATCC 13883 | concentration not given, together with: rifampicin |  | MIC in combination | 6.25 µg/mL
C[C@H]1COc2c(N3CCN(C)CC3)c(F)cc3c(=O)c(C(=O)O)cn1c23 | broth microdilution | NCTC 13438 |  | reference: 5% CO2 over ambient air | MIC fold shift | 2

For quick reference, copied from above:
SMILES | assay | system | conditions | how to read | quantity | value
C[C@@H](O)[C@H]1C(=O)N2C(C(=O)O)=C(SCCN=CN)C[C@H]12 |  |  |  |  | MIC90 | 8 µg/mL (≈ 26.7 µM)
Cc1c(CN(C)C(=O)/C=C/c2cnc3c(c2)CC(NC(=O)OC(C)(C)C)C(=O)N3)oc2ccccc12 (stereo not drawn) | broth microdilution | AR-0139 |  |  | MIC | > 32 µg/mL
